# Measured values pooled from the literature.
# Each numbered part is a random draw from the data of one study; scales do not carry over between parts. Changes are numbered by the printed parent chain.

# Series 1 — target: CCNE1, cyclin fold, Cln2 fusion (human); technique: yeast growth competition, sequencing; matrix: yeast; setting: weak parent motif; baseline: not given; reading: higher = stronger binding
# Parent: CDC6 docking peptide (human); TLKGRRLVFDNQL
Change,normalised enrichment score
G4K,-0.0681
D10R,0.198
D10T,-0.233
V8R,0.48
L13D,-0.401
G4V,0.291
R6P,1.16
K3A,0.122
L2G,0.381
R6F,-0.17
G4I,1.87
L2W,1.26
F9M,0.233
Q12G,1.34
F9R,0.148
R6T,0.487
D10P,-0.759
F9I,0.772
L13S,0.574
T1N,0.845
F9Q,-0.344
R5A L7A,0.463
Q12L,1.12

# Series 2 — target: CREB5, bZIP domain (human); technique: DHFR protein complementation; matrix: yeast; baseline: wild-type JUN-FOS pair; reading: higher = stronger binding
# Setting: single substitutions, most at no-binding floor
# Parent: JUN, bZIP domain (human); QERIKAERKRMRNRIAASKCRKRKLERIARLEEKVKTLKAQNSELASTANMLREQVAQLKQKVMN; partner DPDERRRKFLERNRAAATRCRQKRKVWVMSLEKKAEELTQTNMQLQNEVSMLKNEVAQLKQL
Change,binding fitness
A46T,-0.16 natural log
E32D,-0.657 natural log
E32V,-0.475 natural log
N42R,-0.745 natural log
Q41K,-0.344 natural log
A40S,-0.329 natural log
L38F,-1.25 natural log
V56S,-1.1 natural log
L38S,-1.4 natural log
L45E,-1.39 natural log
A49P,-1.37 natural log
A46G,-0.772 natural log
T37G,-0.346 natural log
A46K,-0.316 natural log
E44N,-0.56 natural log
L31C,-1.17 natural log
T48D,-0.683 natural log
E44L,-0.475 natural log
L52S,-1.43 natural log
E54Y,-0.624 natural log
S43F,-0.358 natural log

# Series 3 — technique: universal PBM; molecule type: double-stranded DNA, one strand shown; matrix: in vitro; concentration: 600 nM; reading: higher = stronger binding
# Target: Sal-like protein 4, full length isoform A (SALL4, Homo sapiens, UniProt Q9UJQ4, residues 1-1053)
# UniProt Q9UJQ4, sequence (whole entry, looked up): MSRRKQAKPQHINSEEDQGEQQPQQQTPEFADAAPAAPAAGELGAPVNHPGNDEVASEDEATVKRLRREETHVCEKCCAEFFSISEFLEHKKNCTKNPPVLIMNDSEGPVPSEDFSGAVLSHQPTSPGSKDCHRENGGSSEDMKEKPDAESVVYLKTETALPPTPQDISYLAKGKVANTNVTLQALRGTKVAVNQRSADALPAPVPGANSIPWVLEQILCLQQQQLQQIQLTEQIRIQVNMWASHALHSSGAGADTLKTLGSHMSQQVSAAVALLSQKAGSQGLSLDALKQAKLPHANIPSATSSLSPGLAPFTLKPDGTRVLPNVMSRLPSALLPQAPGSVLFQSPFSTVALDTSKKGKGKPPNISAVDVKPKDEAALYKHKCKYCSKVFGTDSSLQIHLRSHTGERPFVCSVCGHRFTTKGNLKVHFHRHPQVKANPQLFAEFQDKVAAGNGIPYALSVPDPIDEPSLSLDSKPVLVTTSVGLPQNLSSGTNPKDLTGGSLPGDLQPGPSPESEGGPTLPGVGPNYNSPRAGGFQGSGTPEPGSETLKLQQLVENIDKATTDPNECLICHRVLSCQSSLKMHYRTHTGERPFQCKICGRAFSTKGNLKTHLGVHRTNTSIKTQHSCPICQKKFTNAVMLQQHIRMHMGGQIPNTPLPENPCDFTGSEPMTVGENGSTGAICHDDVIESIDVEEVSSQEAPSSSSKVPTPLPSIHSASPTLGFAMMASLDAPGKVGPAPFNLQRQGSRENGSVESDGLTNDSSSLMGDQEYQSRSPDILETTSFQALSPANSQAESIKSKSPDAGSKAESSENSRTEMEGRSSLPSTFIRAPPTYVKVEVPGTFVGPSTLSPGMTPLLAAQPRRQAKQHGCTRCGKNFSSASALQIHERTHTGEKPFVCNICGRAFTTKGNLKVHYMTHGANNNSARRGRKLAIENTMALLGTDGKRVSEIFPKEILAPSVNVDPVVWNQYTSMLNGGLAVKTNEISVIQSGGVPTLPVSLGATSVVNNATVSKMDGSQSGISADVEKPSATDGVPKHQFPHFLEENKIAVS
# Setting: 8-mer, flanks averaged, mean of replicates
Strand,E-score
CCATAATC,0.232
CCTCGTAG,-0.0223
CCGACACA,-0.147
TGATGACA,0.0114
ACGGGAAA,-0.0822
AGACCCAC,-0.16
ATTTGGAA,0.221
CATGGTCA,0.0877
AAACACTT,0.11
CGCTCATA,0.013
ATGGATTA,0.156
CAACCGCA,-0.106
AAAGGGCT,-0.137
GATGATAA,0.215
AGGATAAT,0.216
CAACTCCA,-0.0957
AAGTTGAA,0.0712
CAGGACAG,-0.295
AGAGGGTG,-0.214
AGTCGCGC,-0.263
AGGGTAAT,0.166
CGAGGACG,-0.206
AAACGTGC,-0.136
ATGAGGGA,0.0545

# Series 4 — technique: protein-binding microarray; molecule type: double-stranded DNA, one strand shown; matrix: in vitro; concentration: 250 nM; setting: 60-bp whole probe; together with: salmon DNA 0.4 mg/ml; baseline: random background probes; reading: higher = stronger binding; all sequences stand within: GCCTAGCAC … GTCTTGATTCGCTTGACGCTGCTG
# Target: Interferon regulatory factor 7, full length, phosphomimetic (IRF7, Homo sapiens, UniProt Q92985, residues 1-503, S101K/S471D/S472D/S475D/S476D/S477D/S483D/S484D/S487D)
# UniProt Q92985, sequence (whole entry, unmodified, looked up): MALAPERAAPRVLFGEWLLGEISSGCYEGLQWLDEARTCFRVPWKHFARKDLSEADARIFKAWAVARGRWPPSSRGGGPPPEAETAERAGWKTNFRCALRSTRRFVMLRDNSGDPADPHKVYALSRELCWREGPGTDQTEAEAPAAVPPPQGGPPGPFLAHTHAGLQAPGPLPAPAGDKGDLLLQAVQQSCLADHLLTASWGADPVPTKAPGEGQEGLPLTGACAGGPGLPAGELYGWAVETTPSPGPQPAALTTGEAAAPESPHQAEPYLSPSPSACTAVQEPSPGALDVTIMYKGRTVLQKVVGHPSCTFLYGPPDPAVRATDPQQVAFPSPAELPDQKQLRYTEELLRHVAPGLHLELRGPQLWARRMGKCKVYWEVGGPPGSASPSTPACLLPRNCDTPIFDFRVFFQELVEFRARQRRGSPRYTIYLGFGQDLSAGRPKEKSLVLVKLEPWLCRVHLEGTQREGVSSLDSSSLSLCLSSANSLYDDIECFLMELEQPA
Strand,log fluorescence [z-score]
TTAGATATCAGAGTGGATTAGTGCTAG,-0.0215
GACGGTATCCTTATCCTAACGTGCTAG,0.445
TTAGGACTGGGGTATCTGTTAGTGCTA,-0.395
TTAGGTATCGTTATCCTTTAGTGCTAG,2.49
GACGGTCTCCTACTGCCGACGTGCTAG,-0.238
GACGGACTAGACTATCGGGACGTGCTA,-0.583
TCAAACTTGTATTTGTCACTGTGCTAG,0.174
GACGGTCTCGGACTGGGCACGTGCTAG,-0.192
GACGGTATCCACACTGGGGACGTGCTA,-0.312
GACGATCTCAGTCTTGAGACGTGCTAG,-0.413
AGTGGCCCAGGGCATCCCCTGTGCTAG,-0.44
AACGAACTGGGGTATCGAGACGTGCTA,-0.492
TTAGGAGTGCTTTTCCTTTAGTGCTAG,0.0288
GACGGTTTCAGTATCGGGACGTGCTAG,2.92
GTTTCTCTTTCCTTCTTGATGTGCTAG,7.94
GACGGTTTCGATACTGGGGACGTGCTA,8.76
TCAGCTCACGCTTTGGAACTGTGCTAG,-0.351
GACGATCTCAGTTTCGTGACGTGCTAG,1.61
TTAGGTCACCTTATCCTTTAGTGCTAG,0.308
TCACCTATAGGTTTCTAACTGTGCTAG,0.326
TCACCTTGCATGTTTTTGACTGTGCTA,-0.0713
GAGGGTTTCCTTATCCTGACGTGCTAG,1.8

# Series 5 — technique: RNA Bind-n-Seq; molecule type: RNA; matrix: in vitro; concentration: 365 nM; baseline: no-protein control; reading: higher = stronger binding
# Target: RNA binding protein fox-1 homolog 2, RRM domain, GST-SBP tag (RBFOX2, Homo sapiens, UniProt O43251-10, residues 100-194)
# Setting: natural RNA segment, single round, ends assumed
# All sequences stand within: GGGAGUUCUACAGUCCGACGAUC … UGGAAUUCUCGGGUGCCAA
# Construct (chain): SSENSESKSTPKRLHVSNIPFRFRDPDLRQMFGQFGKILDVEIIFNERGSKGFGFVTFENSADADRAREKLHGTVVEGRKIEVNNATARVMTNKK
Strand,RBNS enrichment (R)
GCAGGGGUAGGGAAGCUCACCCCUCCCCCCCAAAGCCAUGUCACUGAAGAGGCCUGGGGGGUGGUAUAUGGCCCCUCCCCAUCAGGCGCUAAGGGGACACCCCUUCCCCA,0.272
GCAGGAAUGCUUUUCCAUCAGGGAAUAAAUACUUAGAAGCGCUUACAAGGUGCCAGGCACCUCCUUUCUGCAUGUGCCUGCCUUUCUAGUAGCAGACAGAUGGAAACAUU,2.63
GCCCCAGGGCAUCUGCCAACUCCAGUAUCAGCUCUCACAGUGUACUUGGUACCAUCCCUGGGCUCUGCUGGCGAGACGAAACAGCUGUAGAGAUGAAAACAGGCUGCAGA,0.304
UUCUAGUUACAGAAGCCUUGCUCUGCUGUCAACAAUUGGGAAAUGCUCAUUUUUUCAUGUUUUGUGAAUACUCUGGUCUUGCUGUAAGCUAAUGUCAUGGCUGUGGGAUA,0.55
GACAUCCACCUCCAGAGCAACACUGGCCCCACAGUAAAAGAGGAAGUCUUGUACCUCAGGCAGGCCCAUCUAGAGCUAUUGCUCCUUCCCACAGCAAAGGUAUUGUGGAU,0.439
UUUUUUUUUAAAAAAAACAAAGCAACAAAUUGACUAGAUAUAGGAUAAUUGAAACAUGUUAAAACAUUUAAUAUUGUAUAGGAUAUUGCUAAUUGUGUAUAUGUUGGUUU,0.532
CAACACGUGUCCCUACAGGCAAAGUGUCCUGGCAUUUAAAACCCAGAUUAUCCCUGGGUUUGGGCUGCAGUCACCUGGAGAAGCUGGUAGGGUAAGGGAGAGGGACCCUG,0.576
GUGUCUCACUAAAGCAUGAAAUGUGAAUUUUUAUUGUUGGAAAUAUAAUUUAAGGUAUUUAUGUUCUUCUCUGUGAGAAGGUUUAUUGUUAAUACAAGGUAUAAAAAACA,10.5
GUCCACGUCUCCCGUGAUUGCCAGUGCUAAUAUGGCUGGGGCUGAGACUUUGCAAGGCCUAAUGCCAAAGGACACAAGGCCUGUGUGGUGUCUGCCACACUCAGCAGGCC,0.33
AAACUUACAUCUAGCAACUUGGAAAGCACUUUCUCUGGGGAUCUUCUUUUGUAACUUUGCAGACAAAUAAGUAUGAGUCACUGGGGAGAGAGUUUGUUAUUGAAAUAGAU,0.555
ACAUCCAGUAAAAUUCACCCUUUGGAAAUAUACAGCUCUGUGAAUUUUGACAAAUUUAGUGUCUUGUGACCAUCACCAAGAUCAACCUGUUUUUAACCCUCCAAAAAAUU,0.578
CCUCAGAACUUCAAAAGGGCAAGAUCUUUUUUCCUUCACUUAUUGCUGAAACCAAGAGCACAAUUCCCAUUAAGAGAAGGAUCUCUGUGCUGUAAACUAAACAAAUUGUG,0.378

# Some of these lines once more (series 1):
Change,normalised enrichment score
F9R,0.148
G4I,1.87
R6T,0.487
V8R,0.48
L2W,1.26
D10R,0.198
L13S,0.574
F9M,0.233
T1N,0.845
R6P,1.16
G4K,-0.0681
L2G,0.381
G4V,0.291
Q12G,1.34
F9I,0.772
